Published values pooled from the literature.
A part holds a random share of what one study measured.

Series 1 — method: protein binding microarray; molecule type: double-stranded DNA, one strand shown; sample: in vitro; concentration: not given; relative to: not given; reading: higher = stronger binding; endpoint: E-score
Target: Histone acetyltransferase KAT6A, winged helix 2, GST fusion (KAT6A, Homo sapiens, UniProt Q92794, residues 85-181)
Setting: 8-mer, flanks averaged, mean of 2 arrays, mostly near background
Target sequence (chain): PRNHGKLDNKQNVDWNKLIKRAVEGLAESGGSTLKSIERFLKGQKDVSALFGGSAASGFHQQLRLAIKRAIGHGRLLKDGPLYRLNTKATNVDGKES
CCCCGGAA: 0.0101
AAGCCTAC: -0.0264
ATGCTCCC: -0.099
AATTCCTG: -0.218
ACACTTCT: -0.1
ACCGCACT: 0.234
AGCCACCT: -0.0965
AATGCTTG: -0.0471
ATCTGGTC: 0.00422
ATGCCGAG: 0.22
CATTACCG: -0.031
ATAGGCTC: -0.0708
CGATAGCG: -0.0641
AACGGCCT: -0.0165
GAACTGGC: 0.122
CTAATTGA: 0.167
ATACGTGG: -0.206
CATGTCCC: -0.0686
CGCACCCA: 0.141

Series 2 — method: RNA Bind-n-Seq; molecule type: RNA; sample: in vitro; concentration: 365 nM; relative to: no-protein control; reading: higher = stronger binding; endpoint: RBNS enrichment (R)
Target: RNA binding protein fox-1 homolog 2, RRM domain, GST-SBP tag (RBFOX2, Homo sapiens, UniProt O43251-10, residues 100-194)
Setting: natural RNA segment, single round, ends assumed
Residues (chain): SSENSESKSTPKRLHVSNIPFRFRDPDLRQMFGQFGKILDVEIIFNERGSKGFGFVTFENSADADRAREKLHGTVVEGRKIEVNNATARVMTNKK
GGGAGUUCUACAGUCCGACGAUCACAUGAGUUACUUUUAUAAAUCGAUGACCCCCCACCCCCACCCUCACGUCUUACUCUGAGGUGUGUGACAUCUUUAGUGUGUGAGAUUUGGAUUCCUAACCUUAAGUGAGUGGAAUUCUCGGGUGCCAA: 0.311
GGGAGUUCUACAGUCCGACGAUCGGUGCUGCCUCUACCUGACACUCCCUUGGGCUCCCUGUAACCUCUUCAGAGGCCCUCGCUGCCAGCUCUGUAUCAGGACCCAGAGGAAGGGGCCAGAGGCUCGUUGACUGUGGAAUUCUCGGGUGCCAA: 0.384
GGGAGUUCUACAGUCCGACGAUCCUAGCCCAUAGUCAGUCUGUGUUCUUCCACAGUUGUUUACGGUAGCCUUUUCCUAUCCACUUCCCUUACCAAGUGUAUCCAAGCGUGCACCCACCUCCUCAUUGGAUGGCUGGAAUUCUCGGGUGCCAA: 0.85
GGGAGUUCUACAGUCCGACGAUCCCGCCAGUCCAUACGGUGCUGUCACUGCCCAUCUUCGGUGACACCCUGGGGUGAGGUGCUCAGCACCUUCCUCUCGAGGAGCCACAUUUUCCUCCUUUGUGUUAGGGGACUGGAAUUCUCGGGUGCCAA: 0.325
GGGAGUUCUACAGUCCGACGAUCCCCCCACCCCCUGGGAUGACUGCCUUGAUUCCCAUGGGGAACAACUUUAAAGAAAACCACCACAGCAUUCCAAGGAGUCUGGCGUUCCUCCUCCCUGCCAGAUGACUGUCUGGAAUUCUCGGGUGCCAA: 0.741
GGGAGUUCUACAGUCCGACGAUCCCCUGAUUACACAGAACCUUUCUGGGCUACUUGGAGCAUCACGAAUAGUCUUUCCUGUACUUACCAGAUUUCAAGUAUUCAUAACUUGACUCCCUAAGUGUACAAGUUGGUGGAAUUCUCGGGUGCCAA: 0.279
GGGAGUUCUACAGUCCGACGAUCUUCAAGUGAUUCUCCUGCCUCAGCCUCCCAAGUAGCUGGGUUUAUAGGUGCCCGCCACCAGACCCGGCUAAUUUUUUAGUUUUAGUAGAGACGGGGUUUCACCACGUUGGUGGAAUUCUCGGGUGCCAA: 0.34
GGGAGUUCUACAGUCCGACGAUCCCAACACGUCACCCGAGUAGAAGCUGGGCAAGGCCCUACCAUCCUGGCCGUCUGUUCACAAGCCCAAGGUGCUAGAACUAGCUUAGGAGACAUGCAGGCCACAGGGCUUCUGGAAUUCUCGGGUGCCAA: 0.454
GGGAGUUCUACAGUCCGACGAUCUCCUUCCUCUCCCUCCUGAUAAACAUCUAAGCAGUUUCUAAGUCUAGUUUUACCUCUUAAAUAUCUCUGUUCCCUUCUAAGUUGUUUGCUGUGUUUUCUUCAGAGCAAGAUGGAAUUCUCGGGUGCCAA: 0.564
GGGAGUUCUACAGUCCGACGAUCACAGAUAUGCUGACUAACAGAGAUUGCCAUUAUGAUUUAUAACAAUAUCAAAUGUAUAGUUAUGAACUAGUUAUGAAAUAAUCUUAUGGUUGAGGGUCACCACAACAUGAUGGAAUUCUCGGGUGCCAA: 0.326
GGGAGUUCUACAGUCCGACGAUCCCUCUUGGUUAGAGGAGUGAGUUUCUUUUUUUUCCAUUAACUUGUUUCCUGAUCGAGAAACACGUGCUAAGAUUUCUAUGAAUUCUGCUUCUUUAUAGUUAAGUCUCUGUUGGAAUUCUCGGGUGCCAA: 0.697
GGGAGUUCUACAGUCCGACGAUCCCUGAUCUUUAACAAAGCAUUAAUAAUUCUAAGGAUAAUCUCUAUUUUGUUGUGCUUUUUUGUAACUGUUUUAAAUAAAUCAAUUUGUACUGUAUAUUUGUACUUUUGUGUGGAAUUCUCGGGUGCCAA: 0.726

Series 3 — method: universal PBM; molecule type: double-stranded DNA, one strand shown; sample: in vitro; concentration: 600 nM; reading: higher = stronger binding; endpoint: E-score
Target: Sal-like protein 4, full length isoform A (SALL4, Homo sapiens, UniProt Q9UJQ4, residues 1-1053)
UniProt Q9UJQ4, sequence (whole entry, looked up): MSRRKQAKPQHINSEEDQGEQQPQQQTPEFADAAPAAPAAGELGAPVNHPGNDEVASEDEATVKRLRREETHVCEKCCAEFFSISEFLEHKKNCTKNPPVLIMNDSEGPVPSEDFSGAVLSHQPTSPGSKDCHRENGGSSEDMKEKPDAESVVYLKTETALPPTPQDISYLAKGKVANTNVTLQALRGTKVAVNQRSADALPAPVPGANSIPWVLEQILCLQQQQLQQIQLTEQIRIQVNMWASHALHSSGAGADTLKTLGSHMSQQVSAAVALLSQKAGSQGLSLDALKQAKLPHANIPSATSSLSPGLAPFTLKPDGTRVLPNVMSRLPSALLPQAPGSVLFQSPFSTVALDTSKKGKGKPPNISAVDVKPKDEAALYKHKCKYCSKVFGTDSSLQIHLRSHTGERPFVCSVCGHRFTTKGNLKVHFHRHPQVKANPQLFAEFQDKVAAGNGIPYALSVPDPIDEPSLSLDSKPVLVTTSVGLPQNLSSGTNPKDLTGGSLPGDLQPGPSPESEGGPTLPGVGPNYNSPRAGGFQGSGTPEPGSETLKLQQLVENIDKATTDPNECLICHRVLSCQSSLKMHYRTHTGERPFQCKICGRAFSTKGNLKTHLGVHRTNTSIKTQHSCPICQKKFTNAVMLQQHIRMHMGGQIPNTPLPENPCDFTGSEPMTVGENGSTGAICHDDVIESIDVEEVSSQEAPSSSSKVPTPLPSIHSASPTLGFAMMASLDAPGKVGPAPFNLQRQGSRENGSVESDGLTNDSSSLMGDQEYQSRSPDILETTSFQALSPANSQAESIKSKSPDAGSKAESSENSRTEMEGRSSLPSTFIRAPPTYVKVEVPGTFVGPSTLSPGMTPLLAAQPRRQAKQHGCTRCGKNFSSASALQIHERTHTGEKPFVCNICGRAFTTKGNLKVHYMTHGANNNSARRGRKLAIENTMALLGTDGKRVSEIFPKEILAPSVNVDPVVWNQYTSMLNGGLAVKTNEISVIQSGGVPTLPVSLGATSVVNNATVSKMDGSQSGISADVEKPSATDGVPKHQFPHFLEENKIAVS
Setting: 8-mer, flanks averaged, mean of replicates
ACGTAGAC: -0.145
CTCAAACC: -0.214
TGAAATAA: 0.372
CATTGTCC: 0.0747
GTCGCAAC: -0.0814
TACCAAAA: 0.226
CACCAGTC: -0.387
AACCGGTT: -0.143
CCTATTCA: 0.0994
GGCCTACC: -0.309
AAAGGAAT: 0.161
ACTGCCCA: -0.194
AAAGGCGG: -0.0279
CGACAGAG: -0.162
AGTCCGCC: -0.131
AGTTCCGA: -0.107
AGCGATCA: -0.105
AATCAGGT: 0.193
CGAAAACG: -0.122
ACGGGGGA: -0.157
ACCCTCAA: 0.0125
CCGATCAC: -0.0404
GAACTCGA: -0.112
GGATGAAA: 0.0643
CAGTGCGC: -0.27

Series 4 — method: RNA Bind-n-Seq; molecule type: RNA; sample: in vitro; concentration: not given; relative to: input RNA pool; reading: higher = stronger binding; endpoint: bound/input enrichment
Target: RING finger protein unkempt homolog, zinc fingers 1-6, GST-SBP tag (UNK, Homo sapiens, UniProt Q9C0B0, residues 30-357)
Setting: RNA with constant flanks, human and mouse sites, ends assumed
Construct (chain): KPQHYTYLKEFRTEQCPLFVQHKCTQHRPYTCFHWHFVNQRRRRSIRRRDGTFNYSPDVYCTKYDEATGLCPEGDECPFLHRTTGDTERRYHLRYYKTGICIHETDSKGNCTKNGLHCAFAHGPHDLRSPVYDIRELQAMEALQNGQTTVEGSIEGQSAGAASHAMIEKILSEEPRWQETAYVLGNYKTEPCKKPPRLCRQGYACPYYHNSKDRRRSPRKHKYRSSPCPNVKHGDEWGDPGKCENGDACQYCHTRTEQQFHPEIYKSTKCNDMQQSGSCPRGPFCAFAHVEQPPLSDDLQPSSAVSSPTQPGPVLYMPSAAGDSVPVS
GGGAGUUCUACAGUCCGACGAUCCCAAAAAAAGGGCCCCAAAAGUUCUUGGCAGCACCCUUGUGGUUGGUUUGCUUGUAGGAAUGGGAUAUUUUGCAUUUAUGCUUUUCAGAAGGAGACUUGGCAGCAUGAUAUUAGCACUUACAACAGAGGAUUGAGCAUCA: 0.588 ratio
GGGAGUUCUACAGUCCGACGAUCCUAUUGGUCUUAGACGAGUUCAAAAUGGAGAAAAGAAUCAGCAGAAUGUUCUAUAUAAUGACUUUUCUGUUUCUAACCUUGUGGGGCCCCUACCUGGUGGCCUGUUAUUGGAGAGUUUUUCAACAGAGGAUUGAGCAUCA: 0.151 ratio
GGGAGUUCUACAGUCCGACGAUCUCGCUGCUGGACCUGCUGGAGUGCUCCGUGUGUCUGGAGCGCCUGGACACCACGGCCAAGGUGCUGCCAUGCCAACACACUUUCUGCCGCCGCUGCCUGGAGAGCAUCGUGUGCUCGCGCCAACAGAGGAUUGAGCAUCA: 0.0601 ratio
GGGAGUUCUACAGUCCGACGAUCAGAUUGAUUUUCUUAGACUCCAUUAAGUCCAAAUCCAAAGACUCUGUGUGGGAAAAAGAAAUAGAAAUACUUAUAGAGGAAAAUGAGGACCUCAAACAACAAUGUAUUCAGCUAAAUGAACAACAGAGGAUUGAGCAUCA: 0.482 ratio
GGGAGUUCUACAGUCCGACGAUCUGUUUUGGCUAUUUACAACACUAGUUCUGCUCUUCCAUAAAAAUCGCAUUUUAUCUGUAUUAGUAGAUCUUCACCAAACUCUUAAGCAAUACAAUAUUCCCUCUAAUGCUUUACACACGUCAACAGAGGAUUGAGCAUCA: 0.843 ratio
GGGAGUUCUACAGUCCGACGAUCAUCCUUUCUGGCACAUCUGACCUACUGCUUACCUUCGAUGAGGCUGAGGUUCGUAAAAUUAUUAGGGUUUGCAAAGGAAUUUUGGAAUAUCUUACAGUGGCAGAGGUAGUGGAAACUAUGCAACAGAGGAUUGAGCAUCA: 0.351 ratio
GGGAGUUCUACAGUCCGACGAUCUGAUGAGUAUUUGCAUUAUGAAUGUAUAAUCCAGACAUUAUUUGUAAAGCCUACAGUAUGUUUUUUUUACCUAACACUUUUUAUACUGUGUCUCGUCUCGACAAUAUGAUAUUGAAGUCUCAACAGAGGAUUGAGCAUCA: 0.371 ratio
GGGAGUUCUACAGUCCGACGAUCUGUAAGGGACUGGCAGCUCUGCCGCACUCAUGCCUGGAAAGGGCCAAGGAGAUCAAGAUCAAGUUGGGAAUUCUCCUCCAGAAGCCAGACUCUGCUGUUGACCUUGUCAUUCCAUACAAUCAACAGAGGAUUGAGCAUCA: 0.0713 ratio
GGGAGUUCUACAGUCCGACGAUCAGUGGGAACAUUACUUUUGAUGAGAUUGUCAACAUUGCCCGGCAGAUGAGACACCGGUCUUUGGCUAGAGAACUUUCUGGAACUAUCAAGGAGAUCCUGGGUACUGCACAGUCUGUGGGCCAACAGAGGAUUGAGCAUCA: 0.221 ratio
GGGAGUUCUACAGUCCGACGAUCACGUUUUUAUGGUCCCCUAUGCCUGAACAUUAUGUGGAAGGAUCAACAGUCAAUUGUGUACUAGCAUUCCAAGGAUAUUACCUUCCAAAUGAUGAUGGAGAAUUUUAUCAGUUCUGUUACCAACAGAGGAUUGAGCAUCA: 0.16 ratio
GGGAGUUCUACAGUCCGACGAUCUUUAGAUUGAUCUUUCAAAACUGUGCUGAAUUCAAUGAGCCUGAUUCUGAAGUAGCCAAUGCUGGUAUAAAACUUGAAAGCUAUUUUGAAGAACUUCUAAAGAAUCUUUAUCCAGAAAAACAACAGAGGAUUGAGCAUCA: 0.163 ratio

A few entries again (series 3):
TACCAAAA: 0.226
CATTGTCC: 0.0747
CGACAGAG: -0.162
GTCGCAAC: -0.0814
AGCGATCA: -0.105
CAGTGCGC: -0.27
CCGATCAC: -0.0404
CACCAGTC: -0.387
GAACTCGA: -0.112
